Measured values from different studies.
Each numbered part is a random draw from the data of one study; scales do not carry over between parts.
Chain of UniProt P22607 (whole entry, unmodified, looked up): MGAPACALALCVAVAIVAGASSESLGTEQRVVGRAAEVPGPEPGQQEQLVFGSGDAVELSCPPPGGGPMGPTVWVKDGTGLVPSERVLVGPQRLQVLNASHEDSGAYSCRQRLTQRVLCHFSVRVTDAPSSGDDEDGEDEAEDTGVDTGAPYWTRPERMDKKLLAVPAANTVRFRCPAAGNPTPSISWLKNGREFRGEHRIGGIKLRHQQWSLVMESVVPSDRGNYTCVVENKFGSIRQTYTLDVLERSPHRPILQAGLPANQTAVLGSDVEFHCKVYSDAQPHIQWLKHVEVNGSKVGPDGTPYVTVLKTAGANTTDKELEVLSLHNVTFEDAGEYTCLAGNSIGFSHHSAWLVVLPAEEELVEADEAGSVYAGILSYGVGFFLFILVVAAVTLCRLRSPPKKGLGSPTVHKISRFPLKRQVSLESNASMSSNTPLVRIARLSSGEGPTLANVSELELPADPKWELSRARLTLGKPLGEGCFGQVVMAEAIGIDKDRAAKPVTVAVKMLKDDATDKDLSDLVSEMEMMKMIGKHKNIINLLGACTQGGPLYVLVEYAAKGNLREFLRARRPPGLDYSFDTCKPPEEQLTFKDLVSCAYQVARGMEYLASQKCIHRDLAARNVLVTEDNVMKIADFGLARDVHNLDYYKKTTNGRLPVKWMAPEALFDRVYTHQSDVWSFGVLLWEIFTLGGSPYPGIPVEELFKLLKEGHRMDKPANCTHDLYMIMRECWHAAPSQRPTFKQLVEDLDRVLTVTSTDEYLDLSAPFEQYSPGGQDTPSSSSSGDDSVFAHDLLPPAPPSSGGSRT
Chain of UniProt Q9P2K8 (whole entry, unmodified, looked up): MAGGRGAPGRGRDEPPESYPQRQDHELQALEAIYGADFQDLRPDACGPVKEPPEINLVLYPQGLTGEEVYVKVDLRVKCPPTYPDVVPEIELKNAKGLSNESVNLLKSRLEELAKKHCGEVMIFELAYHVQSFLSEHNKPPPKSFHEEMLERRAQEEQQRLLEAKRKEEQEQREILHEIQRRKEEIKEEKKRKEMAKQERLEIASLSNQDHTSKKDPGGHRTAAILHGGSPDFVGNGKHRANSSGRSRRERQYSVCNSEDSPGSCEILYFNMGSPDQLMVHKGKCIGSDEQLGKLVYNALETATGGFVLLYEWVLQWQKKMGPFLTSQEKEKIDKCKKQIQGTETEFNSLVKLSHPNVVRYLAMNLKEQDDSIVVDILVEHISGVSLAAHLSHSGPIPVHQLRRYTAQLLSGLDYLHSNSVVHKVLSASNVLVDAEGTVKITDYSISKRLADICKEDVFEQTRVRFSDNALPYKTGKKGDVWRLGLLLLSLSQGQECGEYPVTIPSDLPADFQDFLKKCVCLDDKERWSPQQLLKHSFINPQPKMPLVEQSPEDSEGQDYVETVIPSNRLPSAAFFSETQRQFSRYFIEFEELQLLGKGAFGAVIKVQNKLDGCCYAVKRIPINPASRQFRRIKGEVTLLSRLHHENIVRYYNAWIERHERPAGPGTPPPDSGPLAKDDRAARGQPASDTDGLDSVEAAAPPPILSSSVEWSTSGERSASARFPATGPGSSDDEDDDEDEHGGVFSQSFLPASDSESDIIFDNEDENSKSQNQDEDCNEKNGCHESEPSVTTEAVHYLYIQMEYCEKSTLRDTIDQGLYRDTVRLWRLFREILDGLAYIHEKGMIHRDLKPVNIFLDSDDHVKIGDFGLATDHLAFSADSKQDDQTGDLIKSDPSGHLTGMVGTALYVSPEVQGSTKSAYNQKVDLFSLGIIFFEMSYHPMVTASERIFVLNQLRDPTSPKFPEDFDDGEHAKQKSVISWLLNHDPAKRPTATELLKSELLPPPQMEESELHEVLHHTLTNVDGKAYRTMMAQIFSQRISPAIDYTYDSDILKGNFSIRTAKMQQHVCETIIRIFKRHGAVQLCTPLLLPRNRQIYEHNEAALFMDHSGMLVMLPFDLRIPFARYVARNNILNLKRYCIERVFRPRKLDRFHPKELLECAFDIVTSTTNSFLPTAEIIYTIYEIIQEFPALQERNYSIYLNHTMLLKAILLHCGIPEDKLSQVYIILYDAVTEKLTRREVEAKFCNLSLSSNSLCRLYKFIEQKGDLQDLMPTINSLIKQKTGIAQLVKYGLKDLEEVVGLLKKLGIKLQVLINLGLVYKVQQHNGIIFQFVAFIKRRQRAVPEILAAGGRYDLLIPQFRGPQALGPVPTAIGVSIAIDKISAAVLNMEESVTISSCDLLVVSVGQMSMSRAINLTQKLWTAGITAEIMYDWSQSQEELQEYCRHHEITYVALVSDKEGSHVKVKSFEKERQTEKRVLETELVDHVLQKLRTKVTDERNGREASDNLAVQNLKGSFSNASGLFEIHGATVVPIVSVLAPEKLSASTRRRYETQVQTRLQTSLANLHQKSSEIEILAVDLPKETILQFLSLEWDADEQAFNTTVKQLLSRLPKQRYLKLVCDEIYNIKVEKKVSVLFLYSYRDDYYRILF
Chain of UniProt Q32MK0 (whole entry, looked up): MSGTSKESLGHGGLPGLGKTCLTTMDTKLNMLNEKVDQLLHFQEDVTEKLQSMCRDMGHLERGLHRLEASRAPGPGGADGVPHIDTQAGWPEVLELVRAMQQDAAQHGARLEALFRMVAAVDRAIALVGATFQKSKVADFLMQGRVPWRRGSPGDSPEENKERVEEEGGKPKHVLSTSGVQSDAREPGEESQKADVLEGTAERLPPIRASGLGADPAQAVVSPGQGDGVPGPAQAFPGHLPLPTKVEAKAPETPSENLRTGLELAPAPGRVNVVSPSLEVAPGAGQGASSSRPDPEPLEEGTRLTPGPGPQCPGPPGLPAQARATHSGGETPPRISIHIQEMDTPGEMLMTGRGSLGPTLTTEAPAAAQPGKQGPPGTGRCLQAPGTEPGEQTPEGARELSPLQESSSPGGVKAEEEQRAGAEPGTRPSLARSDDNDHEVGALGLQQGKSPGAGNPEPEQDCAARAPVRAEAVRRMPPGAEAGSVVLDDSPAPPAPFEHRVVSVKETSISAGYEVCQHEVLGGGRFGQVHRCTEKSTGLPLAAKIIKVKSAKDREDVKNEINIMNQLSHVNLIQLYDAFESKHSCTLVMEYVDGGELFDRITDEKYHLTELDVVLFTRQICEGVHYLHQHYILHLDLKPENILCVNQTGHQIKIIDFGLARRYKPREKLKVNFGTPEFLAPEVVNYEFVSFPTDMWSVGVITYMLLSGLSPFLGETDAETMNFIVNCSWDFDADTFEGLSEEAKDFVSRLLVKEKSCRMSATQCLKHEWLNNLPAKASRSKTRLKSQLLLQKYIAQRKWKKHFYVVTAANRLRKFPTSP
Chain of UniProt Q8TBX8 (whole entry, looked up): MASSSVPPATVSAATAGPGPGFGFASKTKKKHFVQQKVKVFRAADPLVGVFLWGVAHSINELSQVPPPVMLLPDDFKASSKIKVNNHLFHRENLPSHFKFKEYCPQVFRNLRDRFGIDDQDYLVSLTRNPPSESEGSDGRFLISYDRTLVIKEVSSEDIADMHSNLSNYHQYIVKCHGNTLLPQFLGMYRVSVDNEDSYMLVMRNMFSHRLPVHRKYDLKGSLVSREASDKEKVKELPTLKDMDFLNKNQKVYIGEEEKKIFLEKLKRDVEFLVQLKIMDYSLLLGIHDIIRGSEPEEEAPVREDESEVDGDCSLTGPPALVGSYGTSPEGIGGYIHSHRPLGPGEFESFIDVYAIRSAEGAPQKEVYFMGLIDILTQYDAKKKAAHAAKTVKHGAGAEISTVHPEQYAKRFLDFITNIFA
Chain of UniProt P49761 (whole entry, looked up): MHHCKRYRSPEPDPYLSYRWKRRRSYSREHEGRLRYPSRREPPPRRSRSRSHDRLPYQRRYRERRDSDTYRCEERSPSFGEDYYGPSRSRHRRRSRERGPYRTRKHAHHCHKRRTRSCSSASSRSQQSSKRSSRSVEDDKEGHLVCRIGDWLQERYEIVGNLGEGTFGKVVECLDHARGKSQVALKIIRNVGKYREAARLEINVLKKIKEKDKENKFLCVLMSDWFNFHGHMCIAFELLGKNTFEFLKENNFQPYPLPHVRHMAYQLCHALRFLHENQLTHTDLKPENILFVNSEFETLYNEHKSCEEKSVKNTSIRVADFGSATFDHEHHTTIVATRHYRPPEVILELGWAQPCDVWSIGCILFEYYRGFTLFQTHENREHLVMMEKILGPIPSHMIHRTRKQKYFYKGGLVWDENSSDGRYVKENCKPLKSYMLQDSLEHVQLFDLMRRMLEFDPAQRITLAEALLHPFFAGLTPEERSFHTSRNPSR
Chain of UniProt Q16539 (whole entry, looked up): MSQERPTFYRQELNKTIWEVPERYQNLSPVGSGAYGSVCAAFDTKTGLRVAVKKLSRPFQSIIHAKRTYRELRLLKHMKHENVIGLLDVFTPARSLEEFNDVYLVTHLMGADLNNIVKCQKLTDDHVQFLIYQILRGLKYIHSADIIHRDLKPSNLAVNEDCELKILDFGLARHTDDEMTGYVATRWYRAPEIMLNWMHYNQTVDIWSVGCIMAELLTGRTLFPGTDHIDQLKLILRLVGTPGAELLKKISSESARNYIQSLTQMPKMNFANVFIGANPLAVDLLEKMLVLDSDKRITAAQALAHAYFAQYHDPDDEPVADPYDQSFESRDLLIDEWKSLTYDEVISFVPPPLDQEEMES

Block 1 — observed: enzyme activity; mode: inhibitor; tested at: 0.5 µM; relative to: control
Target: Tyrosine-protein kinase Lyn (LYN, Homo sapiens, UniProt P07948)
Chain of UniProt P07948 (whole entry, looked up): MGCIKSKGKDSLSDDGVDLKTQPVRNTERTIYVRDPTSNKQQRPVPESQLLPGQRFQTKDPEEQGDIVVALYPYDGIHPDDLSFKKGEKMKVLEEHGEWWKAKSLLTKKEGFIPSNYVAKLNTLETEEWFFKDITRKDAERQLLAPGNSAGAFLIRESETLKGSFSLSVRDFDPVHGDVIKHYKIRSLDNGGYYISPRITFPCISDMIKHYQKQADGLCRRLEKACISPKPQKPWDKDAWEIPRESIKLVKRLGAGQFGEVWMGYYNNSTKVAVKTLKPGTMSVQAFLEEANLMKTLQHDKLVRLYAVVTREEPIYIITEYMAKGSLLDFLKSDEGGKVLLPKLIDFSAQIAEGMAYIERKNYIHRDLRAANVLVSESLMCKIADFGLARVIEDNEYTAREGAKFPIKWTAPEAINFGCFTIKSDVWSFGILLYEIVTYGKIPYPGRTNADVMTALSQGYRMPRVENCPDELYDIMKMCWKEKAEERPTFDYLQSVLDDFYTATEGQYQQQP
| SMILES | remaining activity |
| --- | --- |
| Cc1nc2cc3nc(-c4cccs4)cnc3cc2n1C | 97.8% |
| O=C(NC(NC(=S)Nc1ccc(F)c([N+](=O)[O-])c1)C(Cl)(Cl)Cl)C(c1ccccc1)c1ccccc1 (stereo not drawn) | 103% |
| CCOc1nc(NC(=O)Cc2cc(OC)ccc2OC)cc(N)c1C#N | 98.5% |
| COc1cc2c(cc1OC)-c1[nH]nc(Nc3cccc(F)c3)c1C2 | 60.2% |
| CCN(CC)CCNC(=O)c1c(C)[nH]c(/C=C2\C(=O)Nc3ccc(F)cc32)c1C | 23% |
| Ic1cccc(CSc2nnc(-c3ccncc3)o2)c1 | 103% |
| COc1cc2ncnc(Nc3ccc(O)c(Br)c3)c2cc1OC | 40.3% |
| Cn1nc2c3c(cccc31)C(=O)c1ccccc1-2 | 96.1% |
| Nc1cccc(-c2cc3c(Oc4cccc(O)c4)ncnc3[nH]2)c1 | 11.1% |
| CCN(CC)C(=O)c1ccc(Nc2nc(OCC3CCCCC3)c3[nH]cnc3n2)cc1 | 78.2% |
| O=C1C(Cl)=C(N2C(=O)CCC2=O)C(=O)c2ccccc21 | 93.5% |
| C[C@@H]1CCN(C(=O)CC#N)C[C@@H]1N(C)c1ncnc2[nH]ccc12 | 96.3% |
| N#Cc1c(NC(=O)c2cccc3ccccc23)sc2c1CCCC2 | 104% |
| N#C/C(=C\c1ccc(O)c(O)c1)C(=O)NCc1ccccc1 | 99.8% |
| c1ccc(-c2cnc(Nc3ccc(OCCN4CCCC4)cc3)s2)cc1 | 65.1% |
| Cc1cc2ncc(-c3ccccc3)nc2cc1C | 98.2% |
| c1ccc(-c2[nH]ncc2-c2ccnc3ccccc23)nc1 | 87.8% |
| O=C(Nc1cccc(Nc2nccc(Nc3cccc(C(F)(F)F)c3)n2)c1)C1CC1 | 91.9% |
| COc1cc2ncnc(Nc3cccc(Cl)c3)c2cc1OC | 43.1% |
| CN(C)C[C@H]1CCn2c(c(C3=C(c4cn(C)c5ccccc45)C(=O)NC3=O)c3ccccc32)C1 | 100% |
| Cc1cn(-c2cc(NC(=O)c3ccc(C)c(Nc4nccc(-c5cccnc5)n4)c3)cc(C(F)(F)F)c2)cn1 | 52.9% |
| CN([C@@H](Cc1ccc(OS(=O)(=O)c2cccc3cnccc23)cc1)C(=O)N1CCN(c2ccccc2)CC1)S(=O)(=O)c1cccc2cnccc12 | 101% |

Block 2 — cell line: Huh-7; tested at: 10 µM; time: 24 h
| Structure (SMILES) | viability |
| --- | --- |
| CC(C(=O)O)c1ccc(N2Cc3ccccc3C2=O)cc1 (stereo not drawn) | 101% |
| Cc1ncc([N+](=O)[O-])n1CC(O)CCl (stereo not drawn) | 100% |
| CCCc1nc(C(C)(C)O)c(C(=O)OCc2oc(=O)oc2C)n1Cc1ccc(-c2ccccc2-c2nnn[nH]2)cc1 | 92.4% |
| O=C1c2cccc(O)c2C(=O)c2c(O)cccc21 | 97.4% |
| COc1ccccc1OCC(O)CO (stereo not drawn) | 106% |
| CC(=O)S[C@@H]1CC2=CC(=O)CC[C@]2(C)[C@H]2CC[C@@]3(C)[C@@H](CC[C@@]34CCC(=O)O4)[C@H]12 | 101% |
| CCN1CCCC1CNC(=O)c1cc(S(N)(=O)=O)ccc1OC (stereo not drawn) | 95.2% |
| O=C(O)CCC(=O)Nc1ccc(S(=O)(=O)Nc2nccs2)cc1 | 100% |
| CN(C)CCOC(C)(c1ccccc1)c1ccccn1 (stereo not drawn) | 98% |
| CC#C[C@]1(O)CC[C@H]2[C@@H]3CCC4=CC(=O)CCC4=C3[C@@H](c3ccc(N(C)C)cc3)C[C@@]21C | 101% |
| O=C(O)c1cc(O)c2c(c1)[C@H]([C@H]1c3cc(C(=O)O)cc(O)c3C(=O)c3c(O[C@@H]4O[C@H](CO)[C@@H](O)[C@H](O)[C@H]4O)cccc31)c1cccc(O[C@@H]3O[C@H](CO)[C@@H](O)[C@H](O)[C@H]3O)c1C2=O | 99.9% |
| Cn1nnnc1SCC1=C(C(=O)O)N2C(=O)[C@@H](NC(=O)[C@H](OC=O)c3ccccc3)[C@H]2SC1 | 103% |
| CN1CCN(CC/C=C2/c3ccccc3Sc3ccc(S(=O)(=O)N(C)C)cc32)CC1 | 96.6% |
| CC=CC1=C(C(=O)O)N2C(=O)[C@@H](NC(=O)[C@H](N)c3ccc(O)cc3)[C@H]2SC1 | 95.8% |
| CC(C)c1nc(N(C)S(C)(=O)=O)nc(-c2ccc(F)cc2)c1/C=C/[C@@H](O)C[C@@H](O)CC(=O)O | 95.5% |

Block 3 — observed: cell-free assay; method: competition with immobilised ligand; tested at: 0.1 µM
SMILES: CS(=O)(=O)N1CCCC(NC(=O)[C@H](CCC2CCCCC2)NC(=O)c2ccc(CNc3ncnc4c3nnn4-c3ccccc3)cc2)C1 (stereo partly drawn)
| target | remaining binding [%] |
| --- | --- |
| Aurora kinase A (AURKA, Homo sapiens, UniProt O14965) | 100 |
| eIF-2-alpha kinase GCN2, C-terminal kinase domain (EIF2AK4, Homo sapiens, UniProt Q9P2K8, S808G) | 100 |
| STE20-like serine/threonine-protein kinase (SLK, Homo sapiens, UniProt Q9H2G2) | 100 |
| Serine/threonine-protein kinase N2 (PKN2, Homo sapiens, UniProt Q16513) | 95 |
| Calcium/calmodulin-dependent protein kinase type IV (CAMK4, Homo sapiens, UniProt Q16566) | 98 |
| Interferon-induced, double-stranded RNA-activated protein kinase (EIF2AK2, Homo sapiens, UniProt P19525) | 55 |
| Ribosomal protein S6 kinase alpha-2, C-terminal kinase domain (RPS6KA2, Homo sapiens, UniProt Q15349) | 100 |
| Rhodopsin kinase GRK7 (GRK7, Homo sapiens, UniProt Q8WTQ7) | 100 |
| Ephrin type-B receptor 6 (EPHB6, Homo sapiens, UniProt O15197) | 100 |
| Epidermal growth factor receptor (EGFR, Homo sapiens, UniProt P00533, L858R) | 100 |
| Dual specificity protein kinase CLK3 (CLK3, Homo sapiens, UniProt P49761) | 85 |
| Serine/threonine-protein kinase D3 (PRKD3, Homo sapiens, UniProt O94806) | 100 |
| Muscle, skeletal receptor tyrosine-protein kinase (MUSK, Homo sapiens, UniProt O15146) | 100 |
| Inhibitor of nuclear factor kappa-B kinase subunit beta (IKBKB, Homo sapiens, UniProt O14920) | 100 |
| Cyclin-dependent kinase 3 (CDK3, Homo sapiens, UniProt Q00526) | 82 |
| Phosphatidylinositol 4,5-bisphosphate 3-kinase catalytic subunit gamma isoform (PIK3CG, Homo sapiens, UniProt P48736) | 85 |
| Mast/stem cell growth factor receptor Kit (KIT, Homo sapiens, UniProt P10721, D816V) | 100 |
| Serine/threonine-protein kinase Nek5 (NEK5, Homo sapiens, UniProt Q6P3R8) | 95 |
| Fibroblast growth factor receptor 3 (FGFR3, Homo sapiens, UniProt P22607, G697C) | 83 |
| Casein kinase II subunit alpha (CSNK2A1, Homo sapiens, UniProt P68400) | 94 |
| Phosphatidylinositol 5-phosphate 4-kinase type-2 gamma (PIP4K2C, Homo sapiens, UniProt Q8TBX8) | 100 |

Block 4 — tested at: 1 µM
Compound: CN1CCN(C(=O)c2ccc(NC(=O)Nc3ccc(N(C)c4ccnc(Nc5ccc(CS(C)(=O)=O)cc5)n4)cc3)cc2)CC1
| target | assay | conditions | scale | remaining binding [%] |
| --- | --- | --- | --- | --- |
| Fibroblast growth factor receptor 3 (FGFR3, Homo sapiens, UniProt P22607, G697C) | competitive binding panel | – | relative to: vehicle | 100 |
| MAP kinase-interacting serine/threonine-protein kinase 2 (MKNK2, Homo sapiens, UniProt Q9HBH9) | competitive binding panel | – | relative to: vehicle | 4.2 |
| Serine/threonine-protein kinase Nek6 (NEK6, Homo sapiens, UniProt Q9HC98) | competitive binding panel | – | relative to: vehicle | 100 |
| Myosin light chain kinase (MYLK3, Homo sapiens, UniProt Q32MK0) | competitive binding | MLCK | – | 86 |
| Casein kinase I isoform gamma-1 (CSNK1G1, Homo sapiens, UniProt Q9HCP0) | competitive binding panel | – | relative to: vehicle | 100 |
| Dual specificity tyrosine-phosphorylation-regulated kinase 1A (DYRK1A, Homo sapiens, UniProt Q13627) | competitive binding panel | – | relative to: vehicle | 62 |
| Tyrosine-protein kinase JAK2 (JAK2, Homo sapiens, UniProt O60674) | competitive binding panel | JH1 catalytic domain | relative to: vehicle | 4.7 |
| Ankyrin repeat and protein kinase domain-containing protein 1 (ANKK1, Homo sapiens, UniProt Q8NFD2) | competitive binding panel | – | relative to: vehicle | 28 |
| Phosphatidylinositol 4,5-bisphosphate 3-kinase catalytic subunit alpha isoform (PIK3CA, Homo sapiens, UniProt P42336, E545K) | competitive binding panel | – | relative to: vehicle | 97 |
| Tyrosine-protein kinase Yes (YES1, Homo sapiens, UniProt P07947) | competitive binding | YES | – | 96 |
| Mitogen-activated protein kinase 14 (MAPK14, Homo sapiens, UniProt Q16539) | competitive binding | p38-alpha | – | 83 |

Repeated from above (block 3):
| target | remaining binding [%] |
| --- | --- |
| Phosphatidylinositol 5-phosphate 4-kinase type-2 gamma (PIP4K2C, Homo sapiens, UniProt Q8TBX8) | 100 |
| Phosphatidylinositol 4,5-bisphosphate 3-kinase catalytic subunit gamma isoform (PIK3CG, Homo sapiens, UniProt P48736) | 85 |
| Fibroblast growth factor receptor 3 (FGFR3, Homo sapiens, UniProt P22607, G697C) | 83 |
| Cyclin-dependent kinase 3 (CDK3, Homo sapiens, UniProt Q00526) | 82 |
| Ribosomal protein S6 kinase alpha-2, C-terminal kinase domain (RPS6KA2, Homo sapiens, UniProt Q15349) | 100 |
